# Assay results gathered from unrelated publications.
# Lines come from different studies, so protocols differ.
SMILES,assay,system,conditions,half-life
C#Cc1cccc(Nc2ncnc3cc(OC)c(OCCCN4CCOCC4)cc23)c1,metabolic stability,"monkey, liver microsomes","1 µM, pH 7.4",0.0835 h
NC(=O)/C=C/c1cccc(S(=O)(=O)Nc2ccccc2)c1,,"human, moderate liver dysfunction, plasma","intravenous, 400 mg/m^2 belinostat, 30 min infusion, cycle 1 day -7",8.1 h
O=C(CCc1ccc(CNC(C(=O)OC2CCCC2)C2CCCCC2)cn1)NO (centres unmarked),,"human, plasma","oral, multiple dose",< 1 h
C[Si](C)(C)C[C@@H](CN)CC(=O)O,,"male Sprague-Dawley rat, plasma","oral, 30 mg/kg, single dose",2.52 h
O=C(O)c1cccc(S(=O)(=O)Nc2ccccc2)c1,,"human, mild liver dysfunction, plasma","intravenous, 400 mg/m^2 belinostat, 30 min infusion, cycle 1 day -7",4.22 h
CC(C)C[C@@H](NC(=O)[C@H](Cc1cccc2ccccc12)NC(=O)[C@H](CNC(=O)c1ccc2cc(F)ccc2c1)NC(=O)[C@H](CO)NC(=O)C1CCNCC1)C(=O)N[C@H](CO)C(=O)N1CCC[C@H]1C(=O)N[C@H](C(N)=O)[C@@H](C)O,chemical stability,"male human, serum","1 mM, pH 7.4",> 24 h
C[Si]1(C[C@@H](CN)CC(=O)O)CCCC1,,"male Sprague-Dawley rat, plasma","oral, 30 mg/kg, single dose",2.6 h
N[C@@H](COc1ccccc1C(F)(F)F)c1ccccc1,,"rat, plasma","intravenous, 5 mg/kg",1.2 h
Cc1ccc(OCC(=O)N(Cc2cccs2)c2ccn[nH]2)cc1,,"male Sprague-Dawley rat, plasma","oral, 10 mg/kg, single dose",0.6 h
CSCOC1C(=O)C2(C)C(OCSC)CC3OCC3(OC(C)=O)C2C(OC(=O)c2ccccc2)C2(O)CC(OC(=O)C(O)C(C=C(C)C)NC(=O)OC(C)(C)C)C(C)=C1C2(C)C (centres unmarked),,"female Sprague-Dawley rat, plasma","intravenous, 1 mg/kg",7.9 h
O=C(O)/C=C/c1cccc(S(=O)(=O)Nc2ccccc2)c1,,"human, severe liver dysfunction, plasma","intravenous, 400 mg/m^2 belinostat, 30 min infusion, cycle 1 day -7",2.55 h
CC(C)(O)c1ncc([S@](N)(=O)=NC(=O)Nc2c3c(cc4c2CCC4)CCC3)s1,,"healthy human, fasted","oral, 300 mg single dose, capsule formulation",19.9 h
CONC(=O)/C=C/c1cccc(S(=O)(=O)Nc2ccccc2)c1,,"human, moderate liver dysfunction, plasma","intravenous, 400 mg/m^2 belinostat, 30 min infusion, cycle 1 day -7",2.27 h
Cn1c(=O)oc2ccc(-c3ccc(CC(C#N)NC(=O)C4CNCCCO4)c(F)c3)cc21 (centres unmarked),,"human, plasma","15 mg, single dose, fasted, mean",16.5 h
